Published values collected from several papers.
Each numbered part is a random draw from the data of one study; scales do not carry over between parts. “And” joins repeats or separate records; there may be more than shown.
Sequence of UniProt P00519 (whole entry, unmodified, looked up): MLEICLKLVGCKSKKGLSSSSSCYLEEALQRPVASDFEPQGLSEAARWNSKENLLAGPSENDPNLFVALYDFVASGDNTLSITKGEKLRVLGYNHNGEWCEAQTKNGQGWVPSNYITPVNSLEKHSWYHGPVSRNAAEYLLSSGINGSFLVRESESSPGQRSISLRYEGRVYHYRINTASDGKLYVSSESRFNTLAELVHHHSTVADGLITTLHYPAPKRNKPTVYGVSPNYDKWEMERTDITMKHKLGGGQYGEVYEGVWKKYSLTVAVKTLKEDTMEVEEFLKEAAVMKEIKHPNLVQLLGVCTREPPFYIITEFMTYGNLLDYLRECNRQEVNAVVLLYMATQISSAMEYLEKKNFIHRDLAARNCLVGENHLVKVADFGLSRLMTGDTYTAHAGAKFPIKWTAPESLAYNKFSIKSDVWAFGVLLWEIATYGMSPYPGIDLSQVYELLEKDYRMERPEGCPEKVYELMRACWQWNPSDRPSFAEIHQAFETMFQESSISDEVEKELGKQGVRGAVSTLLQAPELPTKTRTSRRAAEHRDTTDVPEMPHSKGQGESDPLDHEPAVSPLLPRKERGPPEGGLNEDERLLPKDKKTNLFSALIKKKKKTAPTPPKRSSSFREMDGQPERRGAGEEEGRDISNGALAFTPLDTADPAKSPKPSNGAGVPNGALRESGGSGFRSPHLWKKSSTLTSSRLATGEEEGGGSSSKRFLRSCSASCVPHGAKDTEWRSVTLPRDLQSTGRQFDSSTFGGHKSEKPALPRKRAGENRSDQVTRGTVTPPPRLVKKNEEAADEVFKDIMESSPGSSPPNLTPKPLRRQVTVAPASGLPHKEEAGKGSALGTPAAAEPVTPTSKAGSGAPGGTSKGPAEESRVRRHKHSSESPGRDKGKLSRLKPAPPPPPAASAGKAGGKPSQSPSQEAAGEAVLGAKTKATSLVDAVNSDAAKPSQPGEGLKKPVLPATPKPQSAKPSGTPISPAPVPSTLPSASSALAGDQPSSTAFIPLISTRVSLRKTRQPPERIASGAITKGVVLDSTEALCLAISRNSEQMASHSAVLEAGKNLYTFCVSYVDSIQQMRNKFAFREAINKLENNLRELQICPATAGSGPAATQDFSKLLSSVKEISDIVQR
Sequence of UniProt O15218 (whole entry, looked up): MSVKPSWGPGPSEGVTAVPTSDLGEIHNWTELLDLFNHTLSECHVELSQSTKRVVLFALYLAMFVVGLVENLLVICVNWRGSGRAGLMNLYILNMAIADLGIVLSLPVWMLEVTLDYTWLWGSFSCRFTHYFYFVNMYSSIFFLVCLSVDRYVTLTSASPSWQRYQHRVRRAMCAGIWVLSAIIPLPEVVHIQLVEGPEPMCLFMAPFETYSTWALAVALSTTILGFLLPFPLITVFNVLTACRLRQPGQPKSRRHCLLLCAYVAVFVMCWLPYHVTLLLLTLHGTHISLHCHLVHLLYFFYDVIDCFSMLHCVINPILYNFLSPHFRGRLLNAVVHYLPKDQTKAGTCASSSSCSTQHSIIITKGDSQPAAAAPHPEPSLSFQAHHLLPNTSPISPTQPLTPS
Sequence of UniProt Q99679 (whole entry, looked up): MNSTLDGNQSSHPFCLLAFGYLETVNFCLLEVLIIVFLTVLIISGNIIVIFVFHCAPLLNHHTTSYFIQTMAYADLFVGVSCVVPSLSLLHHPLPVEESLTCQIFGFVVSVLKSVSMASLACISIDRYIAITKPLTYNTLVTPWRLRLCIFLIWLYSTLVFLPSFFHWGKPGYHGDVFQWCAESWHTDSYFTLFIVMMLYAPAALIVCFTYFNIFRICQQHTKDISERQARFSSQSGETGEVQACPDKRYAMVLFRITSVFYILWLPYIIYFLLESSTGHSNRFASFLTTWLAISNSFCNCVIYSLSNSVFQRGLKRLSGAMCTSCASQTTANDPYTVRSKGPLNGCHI
Sequence of UniProt P29320 (whole entry, looked up): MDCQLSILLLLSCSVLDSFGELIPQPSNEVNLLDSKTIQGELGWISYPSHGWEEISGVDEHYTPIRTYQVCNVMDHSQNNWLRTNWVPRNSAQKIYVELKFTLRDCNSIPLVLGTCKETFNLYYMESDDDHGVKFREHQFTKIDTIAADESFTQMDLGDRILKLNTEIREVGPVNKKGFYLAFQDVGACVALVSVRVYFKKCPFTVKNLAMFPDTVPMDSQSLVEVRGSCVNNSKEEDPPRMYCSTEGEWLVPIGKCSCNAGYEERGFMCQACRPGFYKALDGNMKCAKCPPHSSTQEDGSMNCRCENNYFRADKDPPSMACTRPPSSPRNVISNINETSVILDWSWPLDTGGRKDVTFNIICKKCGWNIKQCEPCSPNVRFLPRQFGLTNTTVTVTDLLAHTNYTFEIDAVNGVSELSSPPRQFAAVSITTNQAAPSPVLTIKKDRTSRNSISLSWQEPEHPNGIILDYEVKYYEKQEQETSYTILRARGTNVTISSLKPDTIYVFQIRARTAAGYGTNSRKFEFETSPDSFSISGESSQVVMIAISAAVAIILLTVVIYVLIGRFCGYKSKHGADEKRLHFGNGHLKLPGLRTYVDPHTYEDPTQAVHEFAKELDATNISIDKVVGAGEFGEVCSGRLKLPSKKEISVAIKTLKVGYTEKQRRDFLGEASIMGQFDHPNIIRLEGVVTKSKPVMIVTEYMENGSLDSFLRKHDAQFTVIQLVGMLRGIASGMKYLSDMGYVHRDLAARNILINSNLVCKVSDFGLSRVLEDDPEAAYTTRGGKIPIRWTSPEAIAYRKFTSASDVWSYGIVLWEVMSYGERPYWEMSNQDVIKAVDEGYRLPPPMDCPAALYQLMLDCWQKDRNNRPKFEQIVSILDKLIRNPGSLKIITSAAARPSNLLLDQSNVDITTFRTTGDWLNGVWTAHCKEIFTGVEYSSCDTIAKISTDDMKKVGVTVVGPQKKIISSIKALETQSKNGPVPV
Sequence of UniProt Q9BYT3 (whole entry, looked up): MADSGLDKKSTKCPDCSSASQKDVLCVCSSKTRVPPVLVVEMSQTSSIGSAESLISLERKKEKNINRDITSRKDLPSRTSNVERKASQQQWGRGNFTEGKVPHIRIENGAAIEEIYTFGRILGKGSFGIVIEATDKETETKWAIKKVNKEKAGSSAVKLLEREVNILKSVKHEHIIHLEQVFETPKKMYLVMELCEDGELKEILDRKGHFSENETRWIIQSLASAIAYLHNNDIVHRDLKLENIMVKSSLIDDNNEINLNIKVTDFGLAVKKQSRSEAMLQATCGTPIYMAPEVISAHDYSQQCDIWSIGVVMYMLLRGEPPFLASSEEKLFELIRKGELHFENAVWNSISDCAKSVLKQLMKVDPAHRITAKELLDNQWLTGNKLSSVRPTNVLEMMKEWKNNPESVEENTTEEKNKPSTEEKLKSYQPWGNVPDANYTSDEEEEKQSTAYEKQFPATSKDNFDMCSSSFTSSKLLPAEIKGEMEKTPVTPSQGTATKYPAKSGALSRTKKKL
Sequence of UniProt Q02779 (whole entry, looked up): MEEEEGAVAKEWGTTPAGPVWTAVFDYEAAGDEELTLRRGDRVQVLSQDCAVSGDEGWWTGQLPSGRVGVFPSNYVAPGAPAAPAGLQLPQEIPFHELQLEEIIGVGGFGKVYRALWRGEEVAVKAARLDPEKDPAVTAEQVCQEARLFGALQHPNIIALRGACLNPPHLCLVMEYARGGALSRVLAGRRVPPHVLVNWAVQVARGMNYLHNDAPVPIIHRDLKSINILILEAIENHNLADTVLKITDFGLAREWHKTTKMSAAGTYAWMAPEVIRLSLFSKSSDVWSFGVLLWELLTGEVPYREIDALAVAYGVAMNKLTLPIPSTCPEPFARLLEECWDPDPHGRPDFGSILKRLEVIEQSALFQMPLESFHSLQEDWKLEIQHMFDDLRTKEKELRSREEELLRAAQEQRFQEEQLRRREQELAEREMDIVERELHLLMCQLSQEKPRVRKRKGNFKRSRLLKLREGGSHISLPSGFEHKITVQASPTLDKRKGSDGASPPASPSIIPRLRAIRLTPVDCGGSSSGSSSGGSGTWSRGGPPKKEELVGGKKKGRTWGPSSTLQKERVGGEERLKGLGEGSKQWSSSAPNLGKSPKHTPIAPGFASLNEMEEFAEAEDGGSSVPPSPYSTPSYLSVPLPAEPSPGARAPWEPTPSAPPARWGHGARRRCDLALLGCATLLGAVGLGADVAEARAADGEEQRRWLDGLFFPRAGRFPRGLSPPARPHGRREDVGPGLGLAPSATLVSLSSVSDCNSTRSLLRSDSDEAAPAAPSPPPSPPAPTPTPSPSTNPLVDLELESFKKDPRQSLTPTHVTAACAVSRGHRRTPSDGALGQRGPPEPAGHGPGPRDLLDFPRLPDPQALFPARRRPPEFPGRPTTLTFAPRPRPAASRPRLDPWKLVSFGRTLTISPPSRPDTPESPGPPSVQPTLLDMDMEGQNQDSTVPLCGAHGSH

Sample 1
SMILES: CC(C)CN(C)c1nc(N)c(C(=O)N=C(N)N)nc1Cl
Effect on: β-arrestin recruitment
Mode: agonist
Method: PRESTO-Tango
Concentration: 10 µM
Baseline: untreated
It gave 0.54 for “fold over basal” (PTH2R (Homo sapiens, UniProt P49190)).
For MTNR1A (Homo sapiens, UniProt P48039): “fold over basal” read 1.42.
Adhesion G protein-coupled receptor E5 (Homo sapiens, UniProt P48960) — “fold over basal”: 0.64.
VIPR2 (Homo sapiens, UniProt P41587) — “fold over basal”: 1.25 fold.
For GPR65 (Homo sapiens, UniProt Q8IYL9): “fold over basal” read 0.67.
HTR1A (Homo sapiens, UniProt P08908) — “fold over basal”: 1.22.
For Probable G-protein coupled receptor 21 (GPR21, Homo sapiens, UniProt Q99679): “fold over basal” read 1.13.
G protein-coupled receptor 88 (Homo sapiens, UniProt Q9GZN0) — “fold over basal”: 1.53.
It gave 1.08 for “fold over basal” (GPR35 (Homo sapiens, UniProt Q9HC97)).
G-protein coupled receptor 182 (GPR182, Homo sapiens, UniProt O15218) — “fold over basal”: 0.85.
For CCR6 (Homo sapiens, UniProt P51684): “fold over basal” read 0.99.

Sample 2
Cell line: A-375
Concentration: 100 µM
Time: 36 h
For CCCCOc1ccc(OCCCN2CCOCC2)cc1, the viability was 52.8%.
With CC1(C)S[C@@H]2[C@H](NC(=O)C(C(=O)O)c3ccccc3)C(=O)N2[C@H]1C(=O)O (stereo partly shown) the viability was 93%.
With CC1(C)S[C@@H]2[C@H](NC(=O)[C@H](N)c3ccccc3)C(=O)N2[C@H]1C(=O)O the viability was 75.9% and 96.8%.
CNCCCC1c2ccccc2C=Cc2ccccc21 gave a viability of -2.6%.
Nc1nc2[nH]cc(CCc3ccc(C(=O)O)cc3)c2c(=O)[nH]1 has a viability of 56.9%.
With Cc1ccc(S(=O)(=O)NC(=O)NN2CC3CCC[C@@H]3C2)cc1 (stereo in doubt) the viability was 90.3%.
For O=c1[nH]c(=O)n([C@H]2C[C@H](O)[C@@H](CO)O2)cc1C(F)(F)F, the viability was 28%.
The viability of CN(C)CCCOc1nn(Cc2ccccc2)c2ccccc12 is reported as 34.1%.

Sample 3
Target: Casein kinase I isoform epsilon (CSNK1E, Homo sapiens, UniProt P49674)
Sequence of UniProt P49674 (whole entry, looked up): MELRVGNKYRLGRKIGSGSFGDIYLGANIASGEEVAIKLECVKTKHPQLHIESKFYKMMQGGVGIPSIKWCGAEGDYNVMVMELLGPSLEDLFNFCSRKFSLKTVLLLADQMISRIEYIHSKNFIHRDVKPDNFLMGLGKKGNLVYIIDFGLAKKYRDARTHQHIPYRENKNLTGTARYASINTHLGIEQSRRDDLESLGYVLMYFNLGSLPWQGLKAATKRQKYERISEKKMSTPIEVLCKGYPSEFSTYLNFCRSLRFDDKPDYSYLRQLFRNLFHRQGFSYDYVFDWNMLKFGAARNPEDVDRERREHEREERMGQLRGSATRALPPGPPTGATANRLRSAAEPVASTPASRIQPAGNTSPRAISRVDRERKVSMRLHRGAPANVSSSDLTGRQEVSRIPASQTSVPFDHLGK
Effect on: enzyme activity
Mode: inhibitor
Concentration: 0.5 µM
Baseline: control
The remaining activity of CN(C)C[C@H]1CCn2c(c(C3=C(c4cn(C)c5ccccc45)C(=O)NC3=O)c3ccccc32)C1 is reported as 99.7%.
The remaining activity of CCN(CC)C(=O)c1ccc(Nc2nc(OCC3CCCCC3)c3[nH]cnc3n2)cc1 is reported as 95.6%.
With O=C(Nc1cccc(Nc2nccc(Nc3cccc(C(F)(F)F)c3)n2)c1)C1CC1 the remaining activity was 110%.
Ic1cccc(CSc2nnc(-c3ccncc3)o2)c1 has a remaining activity of 94.3%.
The remaining activity of O=C(NC(NC(=S)Nc1ccc(F)c([N+](=O)[O-])c1)C(Cl)(Cl)Cl)C(c1ccccc1)c1ccccc1 (stereo not shown) is reported as 111%.
The remaining activity of N#C/C(=C\c1ccc(O)c(O)c1)C(=O)NCc1ccccc1 is reported as 86.3%.
COc1cc2ncnc(Nc3cccc(Cl)c3)c2cc1OC has a remaining activity of 75.3%.
With O=C1C(Cl)=C(N2C(=O)CCC2=O)C(=O)c2ccccc21 the remaining activity was 102%.
The remaining activity of c1ccc(-c2cnc(Nc3ccc(OCCN4CCCC4)cc3)s2)cc1 is reported as 81.2%.
COc1cc2ncnc(Nc3ccc(O)c(Br)c3)c2cc1OC has a remaining activity of 85.1%.
With CCN(CC)CCNC(=O)c1c(C)[nH]c(/C=C2\C(=O)Nc3ccc(F)cc32)c1C the remaining activity was 46.9%.
CCOc1nc(NC(=O)Cc2cc(OC)ccc2OC)cc(N)c1C#N gave a remaining activity of 101%.
Cn1nc2c3c(cccc31)C(=O)c1ccccc1-2 gave a remaining activity of 34.3%.
For Nc1cccc(-c2cc3c(Oc4cccc(O)c4)ncnc3[nH]2)c1, the remaining activity was 92.9%.
With c1ccc(-c2[nH]ncc2-c2ccnc3ccccc23)nc1 the remaining activity was 53.9%.
Cc1cc2ncc(-c3ccccc3)nc2cc1C gave a remaining activity of 85.5%.
The remaining activity of Cc1nc2cc3nc(-c4cccs4)cnc3cc2n1C is reported as 94.5%.
COc1cc2c(cc1OC)-c1[nH]nc(Nc3cccc(F)c3)c1C2 gave a remaining activity of 94.3%.
With N#Cc1c(NC(=O)c2cccc3ccccc23)sc2c1CCCC2 the remaining activity was 102%.

Sample 4
Structure (SMILES): O=C(O)[C@H]1[C@H](Cn2nnc3ccccc3c2=O)CC[C@@H]1C(=O)c1ccc(OCCC2CCOCC2)cc1
Method: competition with immobilised ligand
Concentration: 1 µM
It gave 88% for remaining binding (EGFR (Homo sapiens, UniProt P00533); cell-free assay).
EGFR (Homo sapiens, UniProt P00533, G719S); cell-free assay — remaining binding: 87%.
The remaining binding was 74% (PDPK1 (Homo sapiens, UniProt O15530); cell-free assay).
Mast/stem cell growth factor receptor Kit, autoinhibited (KIT, Homo sapiens, UniProt P10721); cell-free assay — remaining binding: 95%.
It gave 96% for remaining binding (TLK1 (Homo sapiens, UniProt Q9UKI8); cell-free assay).
For Tyrosine-protein kinase ABL1, phosphorylated (ABL1, Homo sapiens, UniProt P00519, F317L); cell-free assay: remaining binding read 81%.
TXK (Homo sapiens, UniProt P42681); binding — remaining binding: 100%.
For GRK7 (Homo sapiens, UniProt Q8WTQ7); cell-free assay: remaining binding read 100%.
STK33 (Homo sapiens, UniProt Q9BYT3); cell-free assay — remaining binding: 98%.
It gave 83% for remaining binding (MAPK10 (Homo sapiens, UniProt P53779); cell-free assay).
It gave 86% for remaining binding (Tyrosine-protein kinase ABL1, non-phosphorylated (ABL1, Homo sapiens, UniProt P00519, F317I); binding).
The remaining binding was 88% (EPHA3 (Homo sapiens, UniProt P29320); cell-free assay).
The remaining binding was 100% (PIK3CA (Homo sapiens, UniProt P42336, E545A); cell-free assay).
The remaining binding was 100% (SBK3 (Homo sapiens, UniProt P0C264); cell-free assay).
For RET (Homo sapiens, UniProt P07949, V804L); cell-free assay: remaining binding read 77%.
PIP4K2B (Homo sapiens, UniProt P78356); cell-free assay — remaining binding: 84%.
For MAP3K10 (Homo sapiens, UniProt Q02779); cell-free assay: remaining binding read 82%.

Excerpt of the above (sample 2):
With CC1(C)S[C@@H]2[C@H](NC(=O)C(C(=O)O)c3ccccc3)C(=O)N2[C@H]1C(=O)O (stereo partly shown) the viability was 93%.
With CC1(C)S[C@@H]2[C@H](NC(=O)[C@H](N)c3ccccc3)C(=O)N2[C@H]1C(=O)O the viability was 75.9% and 96.8%.
CNCCCC1c2ccccc2C=Cc2ccccc21 gave a viability of -2.6%.
For CCCCOc1ccc(OCCCN2CCOCC2)cc1, the viability was 52.8%.
For O=c1[nH]c(=O)n([C@H]2C[C@H](O)[C@@H](CO)O2)cc1C(F)(F)F, the viability was 28%.
Nc1nc2[nH]cc(CCc3ccc(C(=O)O)cc3)c2c(=O)[nH]1 has a viability of 56.9%.
The viability of CN(C)CCCOc1nn(Cc2ccccc2)c2ccccc12 is reported as 34.1%.
With Cc1ccc(S(=O)(=O)NC(=O)NN2CC3CCC[C@@H]3C2)cc1 (stereo in doubt) the viability was 90.3%.
